Measured values collected from several papers.
Compare with care: the assays were run in different laboratories. Values joined by “and” are separate records of one study, mostly repeats; a detail may differ. ± gives the spread as reported.
Beta-lactamase CTX-M-27: Beta-lactamase CTX-M-27 (Escherichia coli, UniProt Q840M4)
Chain of UniProt Q13526 (whole entry, looked up): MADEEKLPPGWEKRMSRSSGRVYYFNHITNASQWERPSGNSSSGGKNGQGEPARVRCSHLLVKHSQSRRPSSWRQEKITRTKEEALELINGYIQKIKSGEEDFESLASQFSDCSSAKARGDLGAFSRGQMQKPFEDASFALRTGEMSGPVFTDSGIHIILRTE
Chain of UniProt Q6GIL5 (whole entry, looked up): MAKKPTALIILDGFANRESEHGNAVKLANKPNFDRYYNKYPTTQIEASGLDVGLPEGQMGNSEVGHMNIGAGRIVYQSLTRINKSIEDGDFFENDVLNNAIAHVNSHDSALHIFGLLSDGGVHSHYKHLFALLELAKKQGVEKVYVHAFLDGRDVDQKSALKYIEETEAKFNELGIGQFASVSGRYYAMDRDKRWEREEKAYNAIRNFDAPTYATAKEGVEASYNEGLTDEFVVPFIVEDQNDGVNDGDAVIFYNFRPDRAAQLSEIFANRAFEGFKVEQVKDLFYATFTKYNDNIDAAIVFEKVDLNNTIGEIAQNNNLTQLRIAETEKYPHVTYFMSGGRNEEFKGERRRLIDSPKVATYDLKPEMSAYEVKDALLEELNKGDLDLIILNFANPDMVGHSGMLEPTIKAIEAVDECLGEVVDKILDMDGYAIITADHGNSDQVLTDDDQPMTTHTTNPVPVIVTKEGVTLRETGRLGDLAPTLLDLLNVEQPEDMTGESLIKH
Chain of UniProt Q8N8S7 (whole entry, looked up): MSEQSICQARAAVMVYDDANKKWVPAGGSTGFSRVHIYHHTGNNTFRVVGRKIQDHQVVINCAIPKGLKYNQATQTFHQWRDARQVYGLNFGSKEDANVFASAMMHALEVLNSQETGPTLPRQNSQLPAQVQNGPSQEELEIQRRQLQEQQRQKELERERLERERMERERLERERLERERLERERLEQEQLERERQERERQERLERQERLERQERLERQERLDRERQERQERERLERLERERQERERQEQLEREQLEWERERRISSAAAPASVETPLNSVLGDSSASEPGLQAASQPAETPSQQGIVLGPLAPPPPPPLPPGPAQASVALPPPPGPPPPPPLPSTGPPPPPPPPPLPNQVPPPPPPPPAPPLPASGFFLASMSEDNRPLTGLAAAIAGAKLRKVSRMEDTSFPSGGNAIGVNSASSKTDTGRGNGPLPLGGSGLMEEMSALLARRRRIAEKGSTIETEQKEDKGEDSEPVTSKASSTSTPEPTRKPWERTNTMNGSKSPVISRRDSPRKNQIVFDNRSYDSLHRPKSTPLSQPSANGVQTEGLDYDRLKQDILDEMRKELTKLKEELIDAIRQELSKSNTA
Chain of UniProt B9K712 (whole entry, unmodified, looked up): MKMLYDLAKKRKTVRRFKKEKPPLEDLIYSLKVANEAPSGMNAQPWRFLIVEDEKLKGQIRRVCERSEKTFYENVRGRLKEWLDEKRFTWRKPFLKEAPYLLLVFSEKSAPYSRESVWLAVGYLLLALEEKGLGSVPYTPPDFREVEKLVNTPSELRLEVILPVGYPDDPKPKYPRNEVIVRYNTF
Chain of UniProt Q9WYW0 (whole entry, looked up): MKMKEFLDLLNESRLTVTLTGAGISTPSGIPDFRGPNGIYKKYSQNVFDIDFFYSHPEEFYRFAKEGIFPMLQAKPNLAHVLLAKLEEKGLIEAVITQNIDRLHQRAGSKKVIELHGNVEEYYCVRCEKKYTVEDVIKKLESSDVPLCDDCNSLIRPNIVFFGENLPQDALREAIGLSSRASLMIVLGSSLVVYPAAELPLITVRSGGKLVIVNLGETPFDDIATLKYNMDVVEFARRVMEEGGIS
Chain of UniProt P10415 (whole entry, unmodified, looked up): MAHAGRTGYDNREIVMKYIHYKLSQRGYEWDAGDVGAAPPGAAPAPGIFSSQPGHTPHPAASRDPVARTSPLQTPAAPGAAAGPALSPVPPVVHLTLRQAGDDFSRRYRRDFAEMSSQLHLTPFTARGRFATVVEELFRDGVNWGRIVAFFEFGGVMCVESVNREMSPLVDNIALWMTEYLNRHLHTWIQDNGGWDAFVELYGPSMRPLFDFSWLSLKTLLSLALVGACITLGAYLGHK
Chain of UniProt Q99828 (whole entry, looked up): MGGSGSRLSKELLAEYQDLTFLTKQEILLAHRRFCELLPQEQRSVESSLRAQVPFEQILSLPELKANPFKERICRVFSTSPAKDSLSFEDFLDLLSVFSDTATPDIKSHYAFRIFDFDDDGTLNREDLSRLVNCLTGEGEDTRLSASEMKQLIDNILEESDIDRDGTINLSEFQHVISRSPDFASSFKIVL
Chain of UniProt Q07741 (whole entry, looked up): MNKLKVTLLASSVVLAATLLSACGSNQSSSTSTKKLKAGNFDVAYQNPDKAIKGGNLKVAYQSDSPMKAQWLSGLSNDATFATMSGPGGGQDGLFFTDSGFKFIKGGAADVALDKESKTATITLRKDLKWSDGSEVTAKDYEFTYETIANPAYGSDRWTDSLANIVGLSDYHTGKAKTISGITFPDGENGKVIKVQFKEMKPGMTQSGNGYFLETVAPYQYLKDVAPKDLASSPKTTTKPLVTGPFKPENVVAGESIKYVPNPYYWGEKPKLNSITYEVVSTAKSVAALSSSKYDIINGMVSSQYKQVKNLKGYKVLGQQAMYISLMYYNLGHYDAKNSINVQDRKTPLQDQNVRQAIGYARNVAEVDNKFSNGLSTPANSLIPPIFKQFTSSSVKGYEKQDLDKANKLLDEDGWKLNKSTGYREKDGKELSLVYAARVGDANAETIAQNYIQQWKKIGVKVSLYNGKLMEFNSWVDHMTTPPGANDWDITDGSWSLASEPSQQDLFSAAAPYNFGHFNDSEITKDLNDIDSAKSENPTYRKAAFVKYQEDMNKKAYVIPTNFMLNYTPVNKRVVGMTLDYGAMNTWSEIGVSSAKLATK
Chain of UniProt P09619 (whole entry, unmodified, looked up): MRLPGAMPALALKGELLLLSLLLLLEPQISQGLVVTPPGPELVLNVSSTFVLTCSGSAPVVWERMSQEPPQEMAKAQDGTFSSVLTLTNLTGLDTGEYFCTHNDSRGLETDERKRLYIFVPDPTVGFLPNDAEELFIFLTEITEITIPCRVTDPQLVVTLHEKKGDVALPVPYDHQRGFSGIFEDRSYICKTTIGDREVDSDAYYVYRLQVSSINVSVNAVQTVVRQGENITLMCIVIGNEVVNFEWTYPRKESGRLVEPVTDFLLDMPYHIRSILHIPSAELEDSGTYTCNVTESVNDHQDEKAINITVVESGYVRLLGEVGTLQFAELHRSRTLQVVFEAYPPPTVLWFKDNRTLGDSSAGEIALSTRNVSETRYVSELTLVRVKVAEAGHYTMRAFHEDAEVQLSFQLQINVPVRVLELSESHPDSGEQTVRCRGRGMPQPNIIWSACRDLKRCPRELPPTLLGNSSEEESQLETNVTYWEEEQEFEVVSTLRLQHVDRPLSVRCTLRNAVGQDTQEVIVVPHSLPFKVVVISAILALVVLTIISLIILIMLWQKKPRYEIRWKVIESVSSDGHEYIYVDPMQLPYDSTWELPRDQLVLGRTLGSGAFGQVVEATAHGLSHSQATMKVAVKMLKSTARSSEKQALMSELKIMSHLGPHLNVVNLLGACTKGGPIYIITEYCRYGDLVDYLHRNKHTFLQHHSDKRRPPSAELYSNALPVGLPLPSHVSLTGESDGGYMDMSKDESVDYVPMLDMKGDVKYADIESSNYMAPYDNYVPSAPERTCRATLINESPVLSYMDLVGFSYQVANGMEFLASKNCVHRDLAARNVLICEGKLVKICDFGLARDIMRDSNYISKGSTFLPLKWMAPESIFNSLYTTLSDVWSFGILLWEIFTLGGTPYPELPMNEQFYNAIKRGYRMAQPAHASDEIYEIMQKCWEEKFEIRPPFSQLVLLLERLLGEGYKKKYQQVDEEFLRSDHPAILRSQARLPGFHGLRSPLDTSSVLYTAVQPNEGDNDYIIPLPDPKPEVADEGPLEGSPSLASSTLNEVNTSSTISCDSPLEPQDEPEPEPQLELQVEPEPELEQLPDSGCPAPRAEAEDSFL
Chain of UniProt Q8JGN5 (whole entry, looked up): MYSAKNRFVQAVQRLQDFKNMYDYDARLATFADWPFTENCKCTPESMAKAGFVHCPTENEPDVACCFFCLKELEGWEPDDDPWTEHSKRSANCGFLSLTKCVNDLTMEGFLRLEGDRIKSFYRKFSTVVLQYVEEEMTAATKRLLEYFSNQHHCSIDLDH
Chain of UniProt P02699 (whole entry, looked up): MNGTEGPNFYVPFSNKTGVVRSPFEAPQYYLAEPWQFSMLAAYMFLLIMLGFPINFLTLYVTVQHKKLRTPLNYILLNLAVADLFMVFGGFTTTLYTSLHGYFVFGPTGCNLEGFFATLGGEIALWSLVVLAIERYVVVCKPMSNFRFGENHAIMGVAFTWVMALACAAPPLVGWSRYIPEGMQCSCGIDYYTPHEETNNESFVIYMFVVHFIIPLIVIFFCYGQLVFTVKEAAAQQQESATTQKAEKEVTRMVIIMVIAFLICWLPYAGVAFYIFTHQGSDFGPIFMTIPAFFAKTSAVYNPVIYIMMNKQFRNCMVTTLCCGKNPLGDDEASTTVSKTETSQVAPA

Structure (SMILES)	target	test	system	setting	Kd
N=C(N)NCCC[C@H](NC(=O)[C@H](Cc1ccccc1)NC(=O)[C@@H]1CCCN1C(=O)[C@H](CO)NC(=O)[C@H](Cc1ccccc1)NC(=O)CNC(=O)[C@@H]1CCCN1C(=O)[C@@H]1CCCN1C(=O)[C@@H](N)CCCNC(=N)N)C(=O)N[C@@H](CCCCNS(=O)(=O)c1ccc(C2=c3cc4c5c(c3Oc3c2cc2c6c3CCCN6CCC2)CCC[N+]=5CCC4)c(S(=O)(=O)[O-])c1)C(=O)O	Oligopeptide-binding protein OppA (oppA, Lactococcus lactis subsp. lactis, UniProt Q07741)	binding of labelled peptide, fluorescence anisotropy	Lactococcus lactis	pH 8, 37 °C	15.9 ± 0.5 µM
CC(C)C[C@H](NC(=O)[C@H](CCCNC(=N)N)NC(=O)CNC(=O)[C@H](CCCNC(=N)N)NC(=O)[C@H](Cc1ccc(O)cc1)NC(=O)[C@H](Cc1c[nH]c2ccccc12)NC(=O)CNC(=O)[C@H](Cc1c[nH]cn1)NC(=O)[C@H](Cc1c[nH]cn1)NC(=O)[C@H](Cc1c[nH]cn1)NC(=O)[C@H](Cc1c[nH]cn1)NC(=O)[C@H](CCCNC(=N)N)NC(=O)[C@H](CCCNC(=N)N)NC(=O)[C@H](CCCNC(=N)N)NC(=O)[C@H](CCCNC(=N)N)NC(=O)[C@H](CCCNC(=N)N)NC(=O)[C@H](Cc1c[nH]cn1)NC(=O)[C@H](Cc1c[nH]cn1)NC(=O)[C@H](Cc1c[nH]cn1)NC(=O)[C@H](Cc1c[nH]cn1)NC(=O)[C@H](CCCNC(=N)N)NC(=O)[C@H](CCCNC(=N)N)NC(=O)[C@H](CCCNC(=N)N)NC(=O)[C@H](CCCNC(=N)N)NC(=O)[C@H](CCCNC(=N)N)NC(=O)CNC(=O)[C@@H](N)CCCCN)C(=O)O	Collagen alpha-1(II) chain (COL2A1, Homo sapiens, UniProt P02458)	binding, SPR	–	–	0.0205 µM
CC[C@H](C)[C@H](NC(=O)[C@H](CS)NC(=O)[C@H](CCC(N)=O)NC(=O)[C@H](CC(C)C)NC(=O)[C@H](CCCCN)NC(=O)[C@H](CCCNC(=N)N)NC(=O)[C@H](C)NC(=O)[C@@H](NC(=O)[C@H](CCC(N)=O)NC(=O)[C@@H](NC(=O)[C@H](CCC(=O)O)NC(=O)[C@H](C)NC(=O)[C@H](CCC(N)=O)NC(=O)[C@@H](N)Cc1c[nH]cn1)C(C)C)[C@@H](C)CC)C(=O)N[C@@H](C)C(=O)N[C@@H](CC(=O)O)C(=O)N[C@@H](CCC(N)=O)C(=O)N[C@@H](Cc1ccccc1)C(=O)N[C@@H](Cc1c[nH]cn1)C(=O)N[C@@H](CCCNC(=N)N)C(=O)N[C@@H](CC(C)C)C(=O)N[C@@H](Cc1c[nH]cn1)C(=O)N[C@H](C(=O)N[C@@H](CCC(N)=O)C(=O)N[C@@H](CCC(N)=O)C(=O)O)C(C)C	BCL2 (Homo sapiens, UniProt P10415, Y108A)	fluorescence polarization	–	fluorescently labelled compound	> 100 µM
COC(=O)[C@H](Cc1ccccc1)NC(=O)[C@@H]1CCCN1C(=O)[C@H](CCCCNC(=O)OCc1ccccc1)NC(=O)[C@H](C)NC(C)=O	PIN1 (Homo sapiens, UniProt Q13526)	binding	–	pH 7.4	70.2 µM and ~70 µM
C=CC[C@H]1OC(=O)CCNC(=O)[C@H](C)N(C)C(=O)[C@H]([C@@H](C)CC)N(C)C(=O)[C@H]([C@@H](C)CC)NC(=O)[C@@H]2[C@@H](C)CCN2C1=O	Platelet-derived growth factor receptor beta, extracellular domain (PDGFRB, Homo sapiens, UniProt P09619, F136A/F138A)	binding, surface plasmon resonance	–	F136A and F138A mutant	99.5 µM
C[C@H](N)C(=O)N[C@@H](CCCNC(=N)N)C(=O)N[C@H](C(=O)N[C@@H](CCCCN)C(=O)N[C@@H](CCC(N)=O)C(=O)N[C@H](C(=O)N[C@@H](C)C(=O)N[C@@H](CCCNC(=N)N)C(=O)N[C@@H](CCCCN)C(=O)N[C@@H](CO)C(=O)N[C@H](C(=O)NCC(=O)O)[C@@H](C)O)[C@@H](C)O)[C@@H](C)OP(=O)(O)O	Baculoviral IAP repeat-containing protein 5.1-A (birc5.1-a, Xenopus laevis, UniProt Q8JGN5)	ITC	–	pH 7.6, 25 °C	6.8 ± 0.24 µM
CC(C)C[C@H](NC(=O)CNC(=O)[C@@H](NC(=O)[C@H](CO)NC(=O)[C@H](CCCCN)NC(=O)[C@H](CC(C)C)NC(=O)[C@H](CC(=O)O)NC(=O)[C@H](CCC(=O)O)NC(=O)[C@H](CC(C)C)NC(=O)[C@@H](NC(=O)C1CC(C)(C)N([O])C1(C)C)C(C)C)C(C)C)C(=O)N[C@@H](Cc1ccccc1)C(=O)O (stereo partly drawn)	Rhodopsin, photoactivated (Meta II) (RHO, Bos taurus, UniProt P02699)	EPR	rod outer segment membranes	pH 6.8, 296 K, rhodopsin 90 µM	4 µM
CC(C)[C@@H]1NC(=O)[C@H](CCC(N)=O)NC(=O)[C@@H](Cc2ccc(O)cc2)NC(=O)CSC[C@@H](C(N)=O)NC(=O)[C@H](CC(=O)O)NC(=O)[C@H](CCC(=O)O)NC(=O)[C@H](Cc2c[nH]c3ccccc23)NC(=O)[C@@H]2CCCN2C(=O)[C@H](CO)N(C)C(=O)[C@H](C)NC(=O)[C@H](Cc2c[nH]c3ccccc23)NC(=O)[C@H](Cc2c[nH]c3ccccc23)NC(=O)[C@H](C(C)C)NC(=O)[C@H]([C@@H](C)O)NC1=O	2,3-bisphosphoglycerate-independent phosphoglycerate mutase (gpmI, Staphylococcus aureus, UniProt Q6GIL5)	binding	–	–	0.79 µM
O=C(Nc1cccc(-c2nn[nH]n2)c1)c1cc(-c2ncccn2)cc(C(F)(F)F)c1	Beta-lactamase CTX-M-27	surface plasmon resonance	–	25 °C	0.834 ± 0.024 µM
CC(C)P(=[Se])(NP(=[Se])(C(C)C)C(C)C)C(C)C	Alpha-amylase (Bacillus subtilis, UniProt P00691)	fluorescence quenching	–	304 K	1390 µM
N=C(N)Nc1ccc(-c2nc3ccc(-c4ccc5nc(-c6ccc(NC(=N)N)cc6)[nH]c5c4)cc3[nH]2)cc1	AT-rich DNA hairpin	binding, microscale thermophoresis	–	–	> 5 µM
CSCC[C@H](NC(=O)[C@@H](NC(=O)[C@H](CC(C)C)NC(=O)[C@@H](NC(=O)[C@H](Cc1c[nH]cn1)NC(=O)CCCCCNC(=O)[C@H](CCCNC(=N)N)NC(=O)[C@H](CCCNC(=N)N)NC(=O)[C@H](CCCNC(=N)N)NC(=O)[C@H](CCC(N)=O)NC(=O)[C@H](CCCNC(=N)N)NC(=O)[C@H](CCCNC(=N)N)NC(=O)[C@H](CCCCN)NC(=O)[C@H](CCCCN)NC(=O)[C@H](CCCNC(=N)N)NC(=O)CNC(=O)[C@@H](N)Cc1ccc(O)cc1)C(C)C)C(C)C)C(=O)N[C@@H](CS)C(=O)N[C@@H](C)C(=O)N[C@H](C(N)=O)[C@@H](C)O	VCP (Homo sapiens, UniProt P55072)	binding, BLI	–	–	14 µM
CC(=O)N[C@@H](Cc1ccccc1Cl)C(=O)N1CCC[C@]12C=C[C@@H]1CC[C@@H](C(=O)N3CC[C@@H]4C=C[C@H]5CC[C@@H](C(=O)N[C@H](C(=O)N[C@@H](CCC(=O)O)C(=O)N[C@@H](CC(=O)O)C(=O)N[C@@H](CCC(=O)O)C(=O)N[C@@H](CC(C)C)C(N)=O)[C@@H](C)O)N5C(=O)[C@H]43)N1C2=O	Protein enabled homolog (ENAH, UniProt Q8N8S7)	binding, fluorescence	–	pH 7.3	0.33 µM
C[C@H](NC(=O)[C@@H](N)Cc1ccc(O)cc1)C(=O)NCC(=O)N[C@@H](COP(=O)(O)O)C(=O)N[C@H](C(=O)N[C@@H](CC(=O)O)C(=O)N[C@@H](CCC(=O)O)C(=O)N[C@@H](CC(N)=O)C(=O)N[C@H](C(=O)N[C@@H](CC(=O)O)C(=O)N[C@@H](CO)C(=O)N[C@@H](CCC(=O)O)C(=O)O)[C@@H](C)O)[C@@H](C)OP(=O)(O)O	Bifunctional polynucleotide phosphatase/kinase, FHA domain (Homo sapiens, UniProt Q96T60)	binding, reverse ITC	–	FHA domain	2.23 µM
CC(=O)NCCCC[C@H](NC(=O)[C@H](CCCCN)NC(=O)[C@H](Cc1c[nH]cn1)NC(=O)[C@H](CCCNC(=N)N)NC(=O)[C@H](CO)NC(=O)[C@@H](NC(=O)[C@H](CO)NC(=O)[C@H](CCC(N)=O)NC(=O)CNC(=O)[C@H](CCCCN)NC(=O)[C@@H](N)CCCCN)[C@@H](C)O)C(=O)N[C@@H](CC(C)C)C(=O)N[C@@H](CCC(=O)O)C(=O)N[C@@H](Cc1ccccc1)C(=O)N[C@@H](CCCCN)C(=O)N[C@H](C(=O)N[C@@H](CCC(=O)O)C(=O)NCC(=O)O)[C@@H](C)O	NAD-dependent protein deacetylase (cobB, Thermotoga maritima, UniProt Q9WYW0)	acetylated p53 peptide binding, intrinsic tyrosine fluorescence	–	pH 9.2, target 0.4 µM	0.11 µM
O=C(Nc1cccc(-c2nn[nH]n2)c1)c1cc(-c2nn[nH]n2)cc(C(F)(F)F)c1	Beta-lactamase CTX-M-27	surface plasmon resonance	–	25 °C	0.292 ± 0.004 µM
CC[C@H](C)[C@@H]1NC(=O)CNC(=O)[C@H](CCSC)NC(=O)[C@H](C(C)C)NC(=O)[C@H]([C@@H](C)O)NC(=O)[C@@H]2CSSC[C@@H]3NC(=O)[C@H](Cc4c[nH]cn4)NC(=O)[C@@H](NC(=O)[C@@H](NC(=O)[C@H](Cc4ccccc4)NC(=O)[C@H](C)N)[C@@H](C)O)CSSC[C@@H](C(=O)N[C@@H](CC(C)C)C(=O)O)NC(=O)[C@H](CSSC[C@H](NC(=O)[C@H](CO)NC(=O)[C@H](CCCNC(=N)N)NC(=O)[C@H](CCCNC(=N)N)NC3=O)C(=O)N[C@@H](Cc3ccc(O)cc3)C(=O)N[C@@H](CO)C(=O)N[C@@H]([C@@H](C)O)C(=O)N[C@@H](CCC(=O)O)C(=O)N[C@@H](Cc3ccc(O)cc3)C(=O)N[C@@H](CO)C(=O)N[C@@H](Cc3ccc(O)cc3)C(=O)NCC(=O)N[C@@H]([C@@H](C)O)C(=O)N2)NC(=O)[C@H](Cc2ccccc2)NC(=O)[C@H](CCCNC(=N)N)NC(=O)[C@H](Cc2c[nH]cn2)NC(=O)[C@H](CC(N)=O)NC1=O	IAPP (Homo sapiens, UniProt P10997)	binding, SPR	–	–	6.21 µM
CSCC[C@H](NC(=O)[C@H](C)NC(=O)CNC(=O)[C@H](Cc1ccc(O)cc1)NC(=O)[C@H](Cc1c[nH]c2ccccc12)NC(=O)[C@H](Cc1ccccc1)NC(=O)[C@H](CO)NC(=O)CNC(=O)CNC(=O)[C@H](CC(=O)O)NC(=O)[C@H](CCC(=O)O)NC(=O)[C@H](CCC(N)=O)NC(=O)[C@@H]1CCCN1C(=O)[C@H](CCCNC(=N)N)NC(=O)[C@H](CCCNC(=N)N)NC(=O)[C@H](CCCNC(=N)N)NC(=O)[C@H](CCC(N)=O)NC(=O)[C@H](CCCNC(=N)N)NC(=O)[C@H](CCCNC(=N)N)NC(=O)[C@H](CCCCN)NC(=O)[C@H](CCCCN)NC(=O)[C@H](CCCNC(=N)N)NC(=O)CN)C(=O)N[C@@H](CCCCN)C(=O)N[C@@H](C)C(=O)N[C@@H](CC(C)C)C(=O)N[C@@H](Cc1ccc(O)cc1)C(=O)NCC(N)=O	CIB1 (Homo sapiens, UniProt Q99828)	peptide binding, inhibitor, TR-FRET competition	–	pH 7.5, 1 mM calcium, with: 30 nM Alexa647-labelled peptide	0.192 ± 0.017 µM
C[C@@H](O)[C@H](NC(=O)[C@@H]1CCCN1C(=O)[C@H](COP(=O)(O)O)NC(=O)[C@H](Cc1ccc(O)cc1)NC(=O)[C@H](CO)NC(=O)[C@@H]1CCCN1C(=O)[C@H](COP(=O)(O)O)NC(=O)[C@@H](NC(=O)[C@@H]1CCCN1C(=O)[C@H](COP(=O)(O)O)NC(=O)[C@H](Cc1ccc(O)cc1)NC(=O)[C@H](CO)NC(=O)[C@@H]1CCCN1C(=O)[C@@H](N)CO)[C@@H](C)O)C(=O)N[C@@H](COP(=O)(O)O)C(=O)N1CCC[C@H]1C(=O)N[C@@H](CO)C(=O)N[C@@H](Cc1ccc(O)cc1)C(=O)N[C@@H](CO)C(=O)O	Regulation of nuclear pre-mRNA domain-containing protein 1A, CID domain (RPRD1A, Homo sapiens, UniProt Q96P16)	isothermal titration calorimetry	–	pH 7.5, 25 °C	> 1000 µM
N[C@@H](Cc1ccc(O)c(I)c1)C(=O)O	Iodotyrosine deiodinase (IYD, Thermotoga neapolitana, UniProt B9K712, M41K)	FMN fluorescence quenching	–	25 °C, M41K variant	1.1 ± 0.1 µM
O=C(CCCN1CCC2(CC1)C(=O)NCN2c1ccccc1)N(Cc1cccs1)c1ccccc1	PDE6D (Homo sapiens, UniProt O43924)	binding	–	–	1.48 ± 0.197 µM

Some of these lines once more:
Structure (SMILES)	target	test	system	setting	Kd
C[C@H](N)C(=O)N[C@@H](CCCNC(=N)N)C(=O)N[C@H](C(=O)N[C@@H](CCCCN)C(=O)N[C@@H](CCC(N)=O)C(=O)N[C@H](C(=O)N[C@@H](C)C(=O)N[C@@H](CCCNC(=N)N)C(=O)N[C@@H](CCCCN)C(=O)N[C@@H](CO)C(=O)N[C@H](C(=O)NCC(=O)O)[C@@H](C)O)[C@@H](C)O)[C@@H](C)OP(=O)(O)O	Baculoviral IAP repeat-containing protein 5.1-A (birc5.1-a, Xenopus laevis, UniProt Q8JGN5)	ITC	–	pH 7.6, 25 °C	6.8 ± 0.24 µM
CC(C)C[C@H](NC(=O)CNC(=O)[C@@H](NC(=O)[C@H](CO)NC(=O)[C@H](CCCCN)NC(=O)[C@H](CC(C)C)NC(=O)[C@H](CC(=O)O)NC(=O)[C@H](CCC(=O)O)NC(=O)[C@H](CC(C)C)NC(=O)[C@@H](NC(=O)C1CC(C)(C)N([O])C1(C)C)C(C)C)C(C)C)C(=O)N[C@@H](Cc1ccccc1)C(=O)O (stereo partly drawn)	Rhodopsin, photoactivated (Meta II) (RHO, Bos taurus, UniProt P02699)	EPR	rod outer segment membranes	pH 6.8, 296 K, rhodopsin 90 µM	4 µM
